Measured values collected from several papers.
Compare with care: the assays were run in different laboratories. “And” joins repeats or separate records; there may be more than shown.
Target: Phosphorylase b kinase gamma catalytic chain, liver/testis isoform (PHKG2, Homo sapiens, UniProt P15735)
Residues used in one study (P15735 1-406): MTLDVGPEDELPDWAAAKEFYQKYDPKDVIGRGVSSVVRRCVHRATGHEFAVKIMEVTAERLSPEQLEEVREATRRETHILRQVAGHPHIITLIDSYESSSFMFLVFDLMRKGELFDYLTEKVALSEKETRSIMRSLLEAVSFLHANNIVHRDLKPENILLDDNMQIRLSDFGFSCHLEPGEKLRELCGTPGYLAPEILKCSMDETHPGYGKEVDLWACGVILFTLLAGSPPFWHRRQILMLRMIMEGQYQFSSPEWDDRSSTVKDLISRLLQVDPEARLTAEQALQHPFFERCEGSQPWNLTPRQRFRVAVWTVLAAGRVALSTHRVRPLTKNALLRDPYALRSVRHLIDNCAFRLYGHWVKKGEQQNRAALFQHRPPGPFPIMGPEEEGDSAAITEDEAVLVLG

For CNC(=O)C1CCN(c2cc(C)c(F)cc2NC(=O)c2ccc(-c3cc(O)ccc3C)c(C)c2)CC1, the remaining binding was 97% (binding, competition with immobilised ligand; 1 µM).
With COc1cc(Nc2nc(C)cc(-c3cnn4nc(OC)ccc34)n2)cc(C(F)(F)F)c1 the remaining activity was 100% (inhibitor; 1 µM; reference: control).
The inhibition of C=CC(=O)Nc1cccc(-c2cnc3[nH]cc(C(=O)NC(C)(C)C)c3n2)c1 is reported as 7% (kinase activity; 0.1 µM).
The remaining activity of O=C=[N][Ru-4]123([n]4c5ccc(O)cc5c5c6c(c7cc(F)c[n+]1c7c54)C(=O)NC6=O)[S+]1CC[S+]2CC[S+]3CC1 (centres unmarked) is reported as 95% (enzyme activity; 100 nM, human enzyme, added: 10 µM ATP; reference: untreated).
Cc1cccc(O[C@H]2CCC[C@@H](C(C)CNCc3ccncc3)C2)c1 (relative stereo) gave an inhibition of -8% (enzyme activity, inhibitor; 10 µM).
N[C@H]1CC[C@H](Nc2nccc(-c3cccnc3Oc3ccc(NC(=O)NC4CC4)c4ccccc34)n2)CC1 — result for “log2 LFQ intensity”: 24 and 23.9 and 24.1 (kinobead competition pulldown; HEK293/HCT116 lysate mixture; 10 µM, 1 h, 4 °C; lower = stronger competition).
NC(=O)[C@@H](O)C[C@H]1CCc2sc3ncnc(O[C@H]4CC[C@H](N5CCOCC5)CC4)c3c21 gave an inhibition of 8% (enzyme activity, inhibitor; 10 µM).
With COCC12C(=O)NC3C4(C(OC)CC1O)C1CC5(O)C(OC)C(O)C(OC(C)=O)(C1C5OC(=O)c1ccccc1)C3(O)C(OC)C24 (centres unmarked) the remaining activity was 101% and 99% (kinase activity, inhibitor, ProQinase kinase profiling; 25 µM; reference: control).
For COc1c(OCCCN2CCOCC2)ccc2c1N=C(NC(=O)c1cnc(N)nc1)N1CCN=C21, the remaining activity was 82% (kinase activity, inhibitor; 1 µM; reference: untreated control).
For Nc1ncc2c(n1)-c1c([nH]c3ccc(C4=CCOCC4)cc13)CCC2, the remaining binding was 100% (binding, competition with immobilised ligand; 1 µM).
Cc1cnc2nc1Nc1cccc(c1)COC/C=C/COCc1cc(ccc1OCCN1CCOCC1)N2 gave a remaining binding of 98% (binding; 0.1 µM).
For CNC(=O)C[C@H](Cc1ccc(C#N)cc1)NC(=O)c1cc(-c2ccc(CN[C@H](C)c3ccc(C)cc3)o2)ccc1Cl, “activity vs control” read 96% (enzyme activity, inhibitor; 1 µM).
For CN1CCN(Cc2ccc(-c3ccc(CO[C@H]4CCC[C@@H]4NC(=O)c4cc(-c5cnn(C)c5)cnc4N)cc3)cc2)CC1, the inhibition was 9% (enzyme activity, inhibitor; 0.1 µM).
CC(C)=CC1OC(C)(C)C2C=C3C(=O)C(Cl)=CC(O)C3C3C(O)C4OC4C(=O)C132 (centres unmarked) gave a remaining binding of 56% (cell-free assay, competition with immobilised ligand; 10 µM).

Repeated from above:
For CN1CCN(Cc2ccc(-c3ccc(CO[C@H]4CCC[C@@H]4NC(=O)c4cc(-c5cnn(C)c5)cnc4N)cc3)cc2)CC1, the inhibition was 9% (enzyme activity, inhibitor; 0.1 µM).
CC(C)=CC1OC(C)(C)C2C=C3C(=O)C(Cl)=CC(O)C3C3C(O)C4OC4C(=O)C132 (centres unmarked) gave a remaining binding of 56% (cell-free assay, competition with immobilised ligand; 10 µM).
